Published values pooled from the literature.
Protocols differ between the studies behind these lines. Several values in a cell are separate wells, animals, samples, runs or records. Numbers after ± are the reported error.
Sequence of UniProt P20272 (whole entry, looked up): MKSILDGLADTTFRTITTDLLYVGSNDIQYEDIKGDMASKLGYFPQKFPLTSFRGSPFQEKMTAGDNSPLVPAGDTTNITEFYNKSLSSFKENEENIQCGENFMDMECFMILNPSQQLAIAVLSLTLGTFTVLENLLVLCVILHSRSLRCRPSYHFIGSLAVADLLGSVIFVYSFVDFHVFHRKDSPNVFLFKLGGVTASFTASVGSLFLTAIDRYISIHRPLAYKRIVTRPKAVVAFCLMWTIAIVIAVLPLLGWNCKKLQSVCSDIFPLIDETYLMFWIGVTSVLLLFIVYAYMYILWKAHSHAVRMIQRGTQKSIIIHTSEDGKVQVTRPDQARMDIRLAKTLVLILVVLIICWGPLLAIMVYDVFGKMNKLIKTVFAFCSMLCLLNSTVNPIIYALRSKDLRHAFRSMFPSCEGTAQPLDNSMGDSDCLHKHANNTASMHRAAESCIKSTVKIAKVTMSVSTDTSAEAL

Compound	target or system	test	system	conditions	how to read	endpoint	result
COc1ccc(C[C@@H]2NC(=O)[C@H]([C@@H](C)O)NC(=O)[C@@H]3[C@@H]4CCN3C(=O)[C@@H]3Cc5cn(c6ccc(F)cc56)CCCCCCN(Cc5ccc(cc5)CCNC(=O)[C@]5(C)CCCN5C2=O)C(=O)CCC(=O)N[C@@H](C)C(=O)N[C@H](CNC(=O)CCCCC[N+](C)(C)C)C(=O)N[C@@H](Cc2cccc(c2)CNC(=O)CO4)C(=O)N3)cc1	–	–	fasted healthy humans, plasma	oral, 10 mg single dose, with 1800 mg Labrasol, geometric mean	–	AUC(0-t)	0.235 µM·h
C[C@H](Cn1cnc2c(N)ncnc21)OCP(=O)(O)O	hCMEC/D3	–	–	5 µM, 1 h, 37 °C, 3-drug cART combination	–	intracellular accumulation	2.63 ± 0.86 pmol/mg protein
O=c1[nH]c(Cc2ccccn2)nc2c1cnn2C1CCOCC1	–	–	male human, plasma	oral, 0.5 mg, single dose	–	Tmax	30 min
C[C@H]1CNCCc2ccc(Cl)cc21	–	–	Sprague-Dawley rat, male, plasma	subcutaneous, 3 mg/kg, 180 min	–	plasma concentration	17.6 ± 0.77 ng/mL
O=C(O)C(F)(F)C(F)(F)C(F)(F)C(F)(F)C(F)(F)C(F)(F)C(F)(F)F	–	–	C57BL/6J mice	oral, dose not given, 12 weeks	baseline: mice over human general population	plasma concentration ratio	2000 to 6000 fold
Cn1cc(C2=C(c3cn(C4CCN(Cc5ccccn5)CC4)c4ccccc34)C(=O)NC2=O)c2ccccc21	–	–	human, cancer patients, plasma	oral, 250 mg once daily, cycle 1 day 22, added: erlotinib 150 mg daily	–	AUC(0-tau) at steady state	6.59 µM·h
Cc1nnc(C(=O)NC(C)(C)c2nc(C(=O)NCc3ccc(F)cc3)c(O)c(=O)n2C)o1	–	LC-MS/MS	rhesus monkeys, both sexes, brain, four regions combined	dose not given, 1 day after last dose, ten days dosing	–	median brain concentration	21.8 ng/g
N=C(N)c1ccc(-c2ccc(-c3ccco3)o2)cc1F	Salmonella enterica	–	TA1535	20 µM, 48 h, added: sodium azide co-exposure	baseline: sodium azide alone	mutant frequency	16%
CCCCCOc1ccc(-c2cc(-c3ccc(C(=O)N[C@H]4C[C@@H](O)[C@@H](O)NC(=O)[C@@H]5[C@@H](O)[C@@H](C)CN5C(=O)[C@H]([C@H](O)CC(N)=O)NC(=O)[C@H]([C@H](O)[C@@H](O)c5ccc(O)c(OS(=O)(=O)O)c5)NC(=O)[C@@H]5C[C@@H](O)CN5C(=O)[C@H]([C@@H](C)O)NC4=O)cc3)no2)cc1	–	–	preterm neonates ≥1000 g, plasma	intravenous, 15 mg/kg/day, repeated dosing, mean	–	clearance	0.51 mL/min/kg
CC(=O)N[C@H](CCCCNC(=O)C(C)F)C(=O)N[C@@H](CS)C(=O)N[C@@H](CS)C(=O)N[C@@H](CCC(=O)O)C(=O)N[C@@H](Cc1c[nH]cn1)C(=O)N[C@H](Cc1ccccc1)C(=O)N[C@@H](CCCNC(=N)N)C(=O)N[C@@H](Cc1c[nH]c2ccccc12)C(=O)N[C@@H](CS)C(=O)N[C@@H](CCCNC(=N)N)C(=O)N1CCC[C@H]1C(=O)N[C@H](C(N)=O)C(C)C (stereo partly shown) [fluorine-18 labelled]	–	–	C57BL/6 mice, male, B16-F10 tumour, heart	intravenous, 4 h	–	tissue uptake	0.14 ± 0.06 %ID/g
CC(C)c1ccc2c(c1)CC[C@H]1[C@](C)(CN)CCC[C@]21C	SK-MEL-24	cell growth or viability, MTS	–	48 h	–	IC50	1.66 µM
CN[C@@](C)(C[18F])C(=O)O	–	–	SCID mouse DU-145 xenograft, blood	60 min, post injection	–	tissue uptake	0.9 ± 0.1 %ID/g
CCCCCc1cc(O)c2c(c1)OC(C)(C)[C@@H]1CCC(C)=C[C@@H]21	Cnr1 (Rattus norvegicus, UniProt P20272)	G protein activation, agonist	Sprague-Dawley rat, female, cerebellar membranes	–	baseline: basal binding	Emax	43.5%
O[C@H]1CCCN[C@@H]1CCCn1cnc2c(Cl)c(Cl)ccc21	–	–	healthy human volunteers, plasma	oral, 50 mg, day 1, multiple ascending dose	–	MRT	282 min
CC(C)C[C@H](NC(=O)[C@H](C)NC(=O)[C@H](Cc1c[nH]cn1)NC(=O)[C@H](CO)NC(=O)[C@H](CCCCN)NC(=O)[C@H](Cc1ccccc1)NC(=O)CNC(=O)[C@@H](N)CC(N)=O)C(=O)N[C@@H](CCC(N)=O)C(=O)N[C@@H](CC(C)C)C(=O)N[C@@H](CC(N)=O)C(=O)N[C@@H](CC(N)=O)C(=O)N[C@@H](CCCNC(=N)N)C(=O)N[C@@H](CCC(N)=O)C(=O)O	–	LC-MS/MS	human serum	concentration not given, 4 h, room temperature, tube without gel separator	baseline: initial concentration	change in serum concentration	-55.5 ± 18%
CC(C)[C@H]1C(=O)N[C@@H](CCCN=C(N)N)C(=O)NCC(=O)N[C@@H](CC(=O)O)C(=O)N[C@H](Cc2ccccc2)C(=O)N1C	–	–	NMRI mice, male, plasma	intravenous, 2.5 mg/kg	–	plasma half-life	19.2 min

Compound	target or system	test	system	conditions	how to read	endpoint	result
CNC(C)Cc1ccc2c(c1)OCO2 (racemic)	–	visual analog scale, measured: Lonely	human	oral, 1.5 mg/kg, mean over session, unit not given	baseline: pre-dose baseline	mood rating	11.1
N#CC(=C(/N)Sc1ccccc1N)/C(C#N)=C(/N)Sc1ccccc1N	–	cell viability, MTT	mouse lung slices	48 h	–	CC50	72.3 µM
[123I]c1cncc(OC[C@@H]2CCN2)c1	–	SPECT	human, temporal lobe	intravenous bolus plus infusion, 7.7 mCi	baseline: plasma	tissue/plasma ratio	22.3
C[C@H]1NC(C)(C)CO[C@]1(O)c1cccc(Cl)c1	–	–	dually perfused human placental lobule	maternal-to-fetal transfer, added: maternal concentration 470 ng/mL	–	time to appearance in fetal circuit	≤ 5 min
CC(C)C(=O)OC[C@H]1O[C@@H](n2ccc(NO)nc2=O)[C@H](O)[C@@H]1O	–	–	rat blood dialysate	5 ng/mL, time not given, three freeze-thaw cycles, added: NHC 25 ng/mL	–	remaining compound	105.2 ± 0.92%
Cc1cnc(C(=O)N[C@H]2CCCCC/C=C\[C@@H]3C[C@@]3(C(=O)NS(=O)(=O)C3CC3)NC(=O)[C@@H]3C[C@@H](Oc4nc5ccccc5c5ccccc45)CN3C2=O)cn1	–	–	healthy human volunteers, plasma	oral, dose not given, added: warfarin plus 2D regimen	–	AUC(0-24)	5870 ng·h/mL
CC(=O)O[C@H]1C(=O)[C@@]2(C)[C@H]([C@H](OC(=O)c3ccccc3)[C@]3(O)C[C@H](OC(=O)[C@H](O)[C@@H](NC(=O)c4ccccc4)c4ccccc4)C(C)=C1C3(C)C)[C@]1(OC(C)=O)CO[C@@H]1C[C@@H]2O	–	–	BALB/c mouse, serum	intraperitoneal, 10 mg/kg every three days, 60 days	–	uric acid	90.8 U/L and 247 U/L and 185 U/L
CNC(=O)c1ccc(-c2cnn3ccc(C(=O)N(C)c4ccc(Cl)c(C(=O)OC)c4)cc23)cc1	–	–	Wistar rats, both sexes, plasma	oral, 25 mg/kg/dose, 50 mg/kg/day, day 1	–	Cmax	0.558 ng/mL
CCCCCCCCCCCCCCCCCC[N+](C)(C)Cc1ccccc1	–	substrate depletion	human liver microsomes	0.5 µM, 0 to 3 h, 37 °C, added: NADPH	–	intrinsic clearance	0.23 mL/h/mg protein
CC1N=C(c2ccccc2F)c2cc(N(C)c3ccccc3)ccc2NC1=O (stereo not shown)	–	shake flask	PBS	24 h, pH 7.4	–	solubility	< 1 µM
COc1ccc2c(c1)[C@]13CCCC[C@@H]1[C@H](C2)N(C)CC3	–	–	Wistar rat, both sexes, plasma	oral, 5 mg/kg, 2 h after pretreatment, added: single TCE 400 mg/kg	–	AUC(0-inf)	156 ± 25 ng·h/mL
N=C(N)c1ccc(-c2ccc(-c3cccs3)o2)c(F)c1	Salmonella enterica	–	TA1535	10 µM, 48 h, added: sodium azide co-exposure	baseline: sodium azide alone	mutant frequency	18%
CC[C@H](C)[C@H](NC(=O)[C@@H](N)CCCNC(=N)N)C(=O)N[C@H](C(=O)N1CCC[C@H]1C(=O)N[C@@H](C)C(N)=O)C(C)C	–	–	healthy volunteers, both sexes, plasma	intravenous infusion, 1.5 mg/kg daily, day 7, multiple ascending dose	–	AUC(0-t)	388 ± 280 ng·h/mL
CSCC[C@@H]1NC(=O)[C@H](CC(=O)O)NC(=O)CNC(=O)[C@H](CCCNC(=N)N)NC(=O)[C@H](C)NC(=O)[C@H](CCC(=O)O)NC(=O)[C@H](CCCNC(=N)N)NC(=O)[C@@H]2CSSC[C@@H]3NC(=O)[C@H](CO)NC(=O)[C@H]([C@@H](C)O)NC(=O)[C@@H]4CCCN4C(=O)[C@H](C)NC(=O)[C@H](Cc4c[nH]c5ccccc45)NC(=O)[C@H](CC(=O)O)NC(=O)CNC(=O)[C@H](CCCNC(=N)N)NC(=O)CNC(=O)[C@H](CCC(N)=O)NC(=O)[C@@H]4CCCN4C(=O)[C@@H](NC(=O)CNC(=O)C(C)F)CSSC[C@H](NC(=O)CNC(=O)[C@H](C)NC(=O)[C@H](CC(C)C)NC(=O)[C@H](CSSC[C@@H](C(=O)NCC(N)=O)NC(=O)[C@H]([C@@H](C)O)NC(=O)[C@H](CCCNC(=N)N)NC(=O)[C@@H]4CCCN4C1=O)NC(=O)[C@H](CC(=O)O)NC(=O)[C@H](CO)NC(=O)[C@H](CC(=O)O)NC(=O)[C@H](CCC(N)=O)NC(=O)[C@H](CO)NC3=O)C(=O)N[C@@H](C(C)C)C(=O)N2 (stereo partly shown) [fluorine-18 labelled]	–	–	nude mice U-87 MG xenograft, muscle	intravenous, 1 h	–	tissue uptake	0.22 ± 0.05 %ID/g
CN1CC[C@]23c4c5ccc(O)c4O[C@H]2[C@@H](O[C@@H]2O[C@H](C(=O)O)[C@@H](O)[C@H](O)[C@H]2O)C=C[C@H]3[C@H]1C5	MDCK-MDR1	–	–	100 min, added: cyclosporine 10 µM	–	Papp	2.71 ± 0.04 ×10⁻⁶ cm/s

For quick reference, copied from above:
Compound	target or system	test	system	conditions	how to read	endpoint	result
CC(C)C(=O)OC[C@H]1O[C@@H](n2ccc(NO)nc2=O)[C@H](O)[C@@H]1O	–	–	rat blood dialysate	5 ng/mL, time not given, three freeze-thaw cycles, added: NHC 25 ng/mL	–	remaining compound	105.2 ± 0.92%
Cc1cnc(C(=O)N[C@H]2CCCCC/C=C\[C@@H]3C[C@@]3(C(=O)NS(=O)(=O)C3CC3)NC(=O)[C@@H]3C[C@@H](Oc4nc5ccccc5c5ccccc45)CN3C2=O)cn1	–	–	healthy human volunteers, plasma	oral, dose not given, added: warfarin plus 2D regimen	–	AUC(0-24)	5870 ng·h/mL
CC(=O)O[C@H]1C(=O)[C@@]2(C)[C@H]([C@H](OC(=O)c3ccccc3)[C@]3(O)C[C@H](OC(=O)[C@H](O)[C@@H](NC(=O)c4ccccc4)c4ccccc4)C(C)=C1C3(C)C)[C@]1(OC(C)=O)CO[C@@H]1C[C@@H]2O	–	–	BALB/c mouse, serum	intraperitoneal, 10 mg/kg every three days, 60 days	–	uric acid	90.8 U/L and 247 U/L and 185 U/L
CNC(=O)c1ccc(-c2cnn3ccc(C(=O)N(C)c4ccc(Cl)c(C(=O)OC)c4)cc23)cc1	–	–	Wistar rats, both sexes, plasma	oral, 25 mg/kg/dose, 50 mg/kg/day, day 1	–	Cmax	0.558 ng/mL
CCCCCCCCCCCCCCCCCC[N+](C)(C)Cc1ccccc1	–	substrate depletion	human liver microsomes	0.5 µM, 0 to 3 h, 37 °C, added: NADPH	–	intrinsic clearance	0.23 mL/h/mg protein
